Assay results gathered from unrelated publications.
Every numbered part comes from another study and shows a few of its results, in no order.

Study 1
Target: Histone acetyltransferase KAT6A, winged helix 2, GST fusion (KAT6A, Homo sapiens, UniProt Q92794, residues 85-181)
Technique: protein binding microarray
Molecule type: double-stranded DNA, one strand shown
Medium: in vitro
Tested at: not given
Setting: 8-mer, flanks averaged, mean of 2 arrays, mostly near background
Reference: not given
Reading: higher = stronger binding
Target sequence (chain): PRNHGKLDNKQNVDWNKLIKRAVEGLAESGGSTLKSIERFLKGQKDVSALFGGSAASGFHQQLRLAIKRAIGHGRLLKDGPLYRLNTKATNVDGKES
| Strand | E-score |
| --- | --- |
| ACGATCCG | -0.0185 |
| CCCCCTAA | -0.0974 |
| AGGGAGAA | 0.0882 |
| AGCTTCGA | 0.0376 |
| CACTATCC | -0.0527 |
| CACTATTA | -0.0668 |
| CTTCCACC | -0.117 |
| CCTGCGGC | 0.101 |

Study 2
Cell line: HEK-293T/ACE2
Read-out: pseudovirus infection
Organism: VSV pseudotyped with SARS-CoV-2 spike
Tested at: 10 µM
Time: 16 h
Reference: vehicle-treated
| SMILES | GFP-positive cells [%] |
| --- | --- |
| CN(CCOc1ccc(CC2SC(=O)NC2=O)cc1)c1ccccn1 (stereo not drawn) | 74.2 |
| C#CCN(C)Cc1ccccc1 | 63.5 |
| C=C1C[C@@H]2[C@H](CC[C@]3(C)C(=O)CC[C@@H]23)[C@@]2(C)C=CC(=O)C=C12 | 71.3 |

Study 3
Target: Replicase polyprotein 1ab, polymerase (rep, Severe acute respiratory syndrome coronavirus 2, UniProt P0DTD1)
Read-out: enzyme activity
Action: inhibitor
Tested at: 20 µM
| SMILES | inhibition |
| --- | --- |
| Cc1c(C)c2c(c(C)c1OC(=O)CCC(=O)O)CC[C@@](C)(CCC[C@H](C)CCC[C@H](C)CCCC(C)C)O2 | -6.33% |
| O=C1c2c(O)cccc2C([C@@H]2O[C@H](CO)[C@@H](O)[C@H](O)[C@H]2O)c2cc(CO)cc(O)c21 (stereo partly drawn) | 8.25% |
| CN1CCCC(CN2c3ccccc3Sc3ccccc32)C1 (stereo not drawn) | 5.83% |
| CCO/N=C(\C(=O)N[C@@H]1C(=O)N2C(C(=O)[O-])=C(Sc3nc(-c4cc[n+](C)cc4)cs3)CS[C@H]12)c1nsc(NP(=O)(O)O)n1 | 1.1% |
| O=C(c1ccc(F)cc1)C1CCN(CCn2c(=O)[nH]c3ccccc3c2=O)CC1 | -4.82% |
| O=C(Nc1c[nH]nc1-c1nc2ccc(CN3CCOCC3)cc2[nH]1)NC1CC1 | -5.35% |
| OCCC#Cc1nc(-c2ccc(F)cc2)c(-c2ccncc2)n1CCCc1ccccc1 | -0.32% |
| C[C@@H]1CN(CCCn2c3ccccc3c3ccccc32)C[C@H](C)N1 | 1.68% |
| Cc1ccc(O)c([C@H](CCN(C(C)C)C(C)C)c2ccccc2)c1 | -2.68% |
| O=C1CC[C@@]2(O)[C@H]3Cc4ccc(O)c5c4[C@@]2(CCN3CC2CC2)[C@H]1O5 | -0.35% |
| CC(C)(C)NS(=O)(=O)c1cncc(-c2cc(F)c3nc(N)nn3c2)c1 | -16.9% |
| O=C1NCCc2[nH]c(-c3ccncc3)cc21 | -4.69% |
| CC(=O)OC[C@H](N)C(=O)O | 6.96% |
| Cc1cc(C(C)(C)C)c(O)c(C)c1CC1=NCCN1 | 32% |
| O=C1Nc2ccccc2/C1=C1/Nc2ccccc2C1=O | 1.35% |
| C[C@@H]1CCC[C@H](C)N1NC(=O)c1ccc(Cl)c(S(N)(=O)=O)c1 | -7.46% |
| CC(=O)CC/C=C(\C)CC/C=C(\C)CC/C=C(\C)CCC=C(C)C | 6.88% |
| CC(C)(C)NCC(O)COc1cccc2c1C[C@H](O)[C@H](O)C2 (mixture of isomers) | 1.21% |
| CC(C)(O)CC(=O)NCCn1ccc2ncnc(Nc3ccc(Oc4cccc(C(F)(F)F)c4)c(Cl)c3)c21 | 4.96% |
| Nc1ncnc2c1ncn2[C@@H]1O[C@H](CO)C[C@H]1O | -4.88% |
| COc1ccc2nc3cc(Cl)ccc3c(Nc3cc(CN4CCCC4)c(O)c(CN4CCCC4)c3)c2n1 | 95.4% |

Study 4
Target: Interferon regulatory factor 7, full length, phosphomimetic (IRF7, Homo sapiens, UniProt Q92985, residues 1-503, S101K/S471D/S472D/S475D/S476D/S477D/S483D/S484D/S487D)
Chain of UniProt Q92985 (whole entry, unmodified, looked up): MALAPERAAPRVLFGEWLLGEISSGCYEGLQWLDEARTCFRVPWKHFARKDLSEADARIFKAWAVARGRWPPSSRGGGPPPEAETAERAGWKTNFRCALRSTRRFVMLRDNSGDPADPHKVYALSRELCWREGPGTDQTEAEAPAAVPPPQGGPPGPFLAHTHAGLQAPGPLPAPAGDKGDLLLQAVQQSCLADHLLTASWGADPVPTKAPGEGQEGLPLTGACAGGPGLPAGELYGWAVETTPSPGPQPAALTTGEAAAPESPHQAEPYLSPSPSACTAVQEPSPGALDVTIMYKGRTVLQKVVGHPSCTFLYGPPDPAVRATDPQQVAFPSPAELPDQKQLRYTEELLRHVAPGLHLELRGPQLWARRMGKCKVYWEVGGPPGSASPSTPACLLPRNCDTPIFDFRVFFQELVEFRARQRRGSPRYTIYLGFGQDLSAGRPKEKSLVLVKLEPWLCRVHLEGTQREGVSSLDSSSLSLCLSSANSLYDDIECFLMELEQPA
Technique: protein-binding microarray
Molecule type: double-stranded DNA, one strand shown
Medium: in vitro
Tested at: 250 nM
Setting: 60-bp whole probe
Together with: salmon DNA 0.4 mg/ml
Reference: random background probes
Reading: higher = stronger binding
Constant ends, left off below: GCCTAGCAC … GTGCTAGGTCTTGATTCGCTTGACGCTGCTG
| Strand | log fluorescence [z-score] |
| --- | --- |
| TCAAATTCTCTTTTCACACT | 1.32 |
| TGTCATATACACATCTTCTG | 0.0284 |
| CCTCCTCTAACTTTCCAATT | 0.493 |
| TTAGGTCTCGGTATTGGTTA | 1.87 |
| GACGGTAGCCTTCTCCTGAC | -0.95 |
| TCATTTTTCATTTTGTTACT | 3.23 |
| AGAGAGAGAGAGAGAGAGAG | 0.132 |
| TTAGATCTCCTTCTCCTTTA | 0.267 |

Single results of other studies
Target: Replicase polyprotein 1ab, 3C-like proteinase (rep, Middle East respiratory syndrome-related coronavirus, UniProt K9N7C7)
Read-out: enzyme activity
Action: inhibitor
Tested at: 10 µM
| SMILES | inhibition [%] |
| --- | --- |
| Cc1ccccc1N(C)C(=O)c1ccc([S+]([O-])c2nccs2)c([N+](=O)[O-])c1 (stereo not drawn) | 7 |
| CCC(C)SSc1ncc[nH]1 (stereo not drawn) | 62.5 |
